# Experimental data of several laboratories.
# Lines come from different studies, so protocols differ. ± gives the spread as reported.
# rep main protease: Replicase polyprotein 1ab, main protease (rep, Severe acute respiratory syndrome coronavirus 2, UniProt P0DTD1)
# rep nsp14 N7-methyltransferase: Replicase polyprotein 1ab, nsp14 N7-methyltransferase (rep, Severe acute respiratory syndrome coronavirus 2, UniProt P0DTD1)
Structure (SMILES),target or system,assay,system,conditions,endpoint,value
Cn1cnc(Cn2c(=O)[nH]/c(=N\c3cc4cn(C)nc4cc3Cl)n(Cc3cc(F)c(F)cc3F)c2=O)n1,,,"human, mild renal impairment, plasma","oral, 375 mg single dose",AUC(0-last),1400 µg·h/mL
COc1ccc2c(c1O)-c1c(OC)c(OC)cc3c1[C@H](C2)N(C)CC3.Cl,rep main protease,"reporter gene (Gaussia luciferase), inhibitor",,20 µM,inhibition,0.876%
CCC(C(=O)Nc1cc(NC2COC2)ccc1C)n1cccc2nc(SCc3ccc(F)cc3)nc1-2 (stereo not shown),"Replicase polyprotein 1ab, papain-like protease (rep, Severe acute respiratory syndrome coronavirus 2, UniProt P0DTD1)",binding,,,koff,0.155 ± 0.014 s⁻¹
Nc1ncnc2c1ncn2[C@@H]1O[C@H](CSCC[C@H](N)C(=O)O)[C@@H](O)[C@H]1O,"Replicase polyprotein 1ab, nsp16 with nsp10 (rep, Severe acute respiratory syndrome coronavirus 2, UniProt P0DTD1)",inhibitor,,,Hill slope,-0.8
C[C@H](NC(=O)c1[nH]nc2nc[nH]c(=O)c12)[C@@H]1CCN(C(=O)c2cc(-c3ccccc3)ccn2)C1,rep main protease,"enzyme activity, inhibitor",,"5 µM, run 1",inhibition,18.7%
O=C1CCCC(=O)C1CC1C(=O)CCCC1=O,rep main protease,"viral replication, Gluc reporter",SARS-CoV-2,20 µM,inhibition,1.19%
O=C(NC[C@@H]1Cc2ccccc2CN1c1nnnn1-c1ccccc1)c1cc[nH]c(=O)c1,rep main protease,"enzyme activity, inhibitor",,"5 µM, run 1",inhibition,11%
CC[C@H](NC(=O)CCC(=O)O)C(=O)N[C@H](C(=O)N[C@@H](CC(C)C)C(=O)N[C@@H](CCC(N)=O)C(=O)Nc1ccc2c(C)cc(=O)oc2c1)C(C)(C)C,rep main protease,substrate,5% DMSO,"pH 7.2, 37 °C",apparent second-order rate constant,567 M⁻¹ s⁻¹
CC(=O)N1CCN(C(=S)c2ccc(-c3cccc(Cl)c3)o2)CC1,rep nsp14 N7-methyltransferase,"N7-methyltransferase activity, inhibitor, Py-FLINT",,,Hill slope,1.3 ± 0.12
O=C(Cc1cccc(OC(F)(F)F)c1)Nc1ccc(CCCCc2nnc(NC(=O)Cc3ccccn3)s2)nn1,rep main protease,"reporter gene (mKate2), inhibitor",,20 µM,inhibition,-0.474%
Nc1ncnc2c([C@@H]3N[C@H](CO)[C@@H](O)[C@H]3O)c[nH]c12,Marburg virus,"viral replication, antibody staining","HeLa, Musoke","100 µM, 12 h",infected cells,0.6%
CC(C)c1nnc(NC(=O)c2cccc(N3C(=O)c4ccccc4C3=O)c2)s1,rep nsp14 N7-methyltransferase,"N7-methyltransferase activity, inhibitor, Py-FLINT",,,Hill slope,1.03 ± 0.16
O=C(Cn1ccnn1)NC[C@H](NC(=O)c1cncc2ccccc12)c1ccc2ccccc2c1,rep main protease,"enzyme activity, inhibitor",,"5 µM, run 1",inhibition,10.6%
Cl.Cl.O=C1c2c(O)ccc(O)c2C(=O)c2c(NCCNCCO)ccc(NCCNCCO)c21,rep nsp14 N7-methyltransferase,"N7-methyltransferase activity, inhibitor, Py-FLINT",,,Hill slope,1.09 ± 0.04
CCS(=O)(=O)c1ncc(Cl)c(C(=O)N(Cc2ccc(Cl)cc2)Cc2ccco2)n1,rep main protease,"viral replication, Gluc reporter",SARS-CoV-2,20 µM,inhibition,-0.0541%
CN1CCCC1c1cc(C(=O)N2C[C@@H](F)C[C@H]2CNC(=O)c2cc3c(=O)[nH]ccn3n2)n[nH]1 (stereo partly shown),rep main protease,"inhibitor, high-throughput enzymatic",,"5 µM, single run",inhibition,7.3%
CC[C@H](C)[C@H](NC(=O)[C@H](CC(C)C)NC(=O)[C@H](Cc1c[nH]c2ccccc12)NC(=O)[C@H](CCC(N)=O)NC(=O)[C@@H](NC(=O)[C@H](Cc1ccccc1)NC(=O)[C@H](C)NC(=O)[C@H](CCCCNC(=O)COCCOCCNC(=O)COCCOCCNC(=O)CC[C@H](NC(=O)CCCCCCCCCCCCCCCCCCC(=O)O)C(=O)O)NC(=O)[C@H](CCC(N)=O)NC(=O)[C@H](C)NC(=O)[C@@H](NC(=O)[C@H](CCCCN)NC(=O)[C@H](CC(=O)O)NC(=O)[C@H](CC(C)C)NC(=O)C(C)(C)NC(=O)[C@@H](NC(=O)[C@H](CO)NC(=O)[C@H](Cc1ccc(O)cc1)NC(=O)[C@H](CC(=O)O)NC(=O)[C@H](CO)NC(=O)[C@@H](NC(=O)[C@H](Cc1ccccc1)NC(=O)[C@@H](NC(=O)CNC(=O)[C@H](CCC(=O)O)NC(=O)C(C)(C)NC(=O)[C@@H](N)Cc1ccc(O)cc1)[C@@H](C)O)[C@@H](C)O)[C@@H](C)CC)[C@@H](C)CC)C(C)C)C(=O)N[C@@H](C)C(=O)NCC(=O)NCC(=O)N1CCC[C@H]1C(=O)N[C@@H](CO)C(=O)N[C@@H](CO)C(=O)NCC(=O)N[C@@H](C)C(=O)N1CCC[C@H]1C(=O)N1CCC[C@H]1C(=O)N1CCC[C@H]1C(=O)N[C@@H](CO)C(N)=O,,,"healthy subjects, single ascending dose","0.5 mg, day 29",serum ALT,21.3 ± 17.6 U/L
Cc1cc2ncc(C(=O)NCC(C)(C)NCC(=O)N3CCC[C@H]3C#N)cn2n1,rep main protease,"reporter gene (Gaussia luciferase), inhibitor",,20 µM,inhibition,-1%
Cc1nc(C(=O)N2CC[C@@H]([C@@H]3CCCN3C(=O)c3cc(C)c4n[nH]nc4c3)C2)cc(=O)[nH]1,rep main protease,"enzyme activity, inhibitor",,"5 µM, run 1",inhibition,12.9%

# For quick reference, copied from above:
Structure (SMILES),target or system,assay,system,conditions,endpoint,value
O=C1CCCC(=O)C1CC1C(=O)CCCC1=O,rep main protease,"viral replication, Gluc reporter",SARS-CoV-2,20 µM,inhibition,1.19%
O=C(NC[C@@H]1Cc2ccccc2CN1c1nnnn1-c1ccccc1)c1cc[nH]c(=O)c1,rep main protease,"enzyme activity, inhibitor",,"5 µM, run 1",inhibition,11%
CC[C@H](NC(=O)CCC(=O)O)C(=O)N[C@H](C(=O)N[C@@H](CC(C)C)C(=O)N[C@@H](CCC(N)=O)C(=O)Nc1ccc2c(C)cc(=O)oc2c1)C(C)(C)C,rep main protease,substrate,5% DMSO,"pH 7.2, 37 °C",apparent second-order rate constant,567 M⁻¹ s⁻¹
